Results gathered from unrelated publications.
Compare with care: the assays were run in different laboratories. Numbers after ± are the reported error.
NR1I2: Nuclear receptor subfamily 1 group I member 2 (NR1I2, Homo sapiens, UniProt O75469)
Sequence of UniProt O75469 (whole entry, looked up): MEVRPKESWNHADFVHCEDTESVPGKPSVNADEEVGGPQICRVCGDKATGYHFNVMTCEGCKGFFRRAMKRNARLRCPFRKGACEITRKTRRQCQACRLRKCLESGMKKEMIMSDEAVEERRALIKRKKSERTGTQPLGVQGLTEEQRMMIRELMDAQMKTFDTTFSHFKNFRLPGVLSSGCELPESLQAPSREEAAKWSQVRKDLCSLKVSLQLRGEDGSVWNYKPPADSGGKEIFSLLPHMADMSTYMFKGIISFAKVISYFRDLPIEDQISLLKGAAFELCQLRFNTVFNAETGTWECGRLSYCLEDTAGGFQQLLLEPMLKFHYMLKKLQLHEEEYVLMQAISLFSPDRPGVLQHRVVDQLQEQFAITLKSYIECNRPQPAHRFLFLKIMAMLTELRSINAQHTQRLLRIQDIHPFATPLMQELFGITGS
Sequence of UniProt Q05421 (whole entry, looked up): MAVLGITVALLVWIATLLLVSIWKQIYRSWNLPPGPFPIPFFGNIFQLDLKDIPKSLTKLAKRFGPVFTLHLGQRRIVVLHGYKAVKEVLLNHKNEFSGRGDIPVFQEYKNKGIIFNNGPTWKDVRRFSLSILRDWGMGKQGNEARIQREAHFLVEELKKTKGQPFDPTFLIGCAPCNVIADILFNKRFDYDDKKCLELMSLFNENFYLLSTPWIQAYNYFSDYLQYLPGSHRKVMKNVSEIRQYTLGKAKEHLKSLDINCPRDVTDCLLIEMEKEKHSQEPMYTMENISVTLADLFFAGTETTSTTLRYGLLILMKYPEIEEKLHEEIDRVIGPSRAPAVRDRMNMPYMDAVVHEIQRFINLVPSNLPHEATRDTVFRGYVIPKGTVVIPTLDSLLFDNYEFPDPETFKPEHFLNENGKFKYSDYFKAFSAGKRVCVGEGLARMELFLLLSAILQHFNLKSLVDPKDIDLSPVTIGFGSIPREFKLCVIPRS
Sequence of UniProt Q16696 (whole entry, looked up): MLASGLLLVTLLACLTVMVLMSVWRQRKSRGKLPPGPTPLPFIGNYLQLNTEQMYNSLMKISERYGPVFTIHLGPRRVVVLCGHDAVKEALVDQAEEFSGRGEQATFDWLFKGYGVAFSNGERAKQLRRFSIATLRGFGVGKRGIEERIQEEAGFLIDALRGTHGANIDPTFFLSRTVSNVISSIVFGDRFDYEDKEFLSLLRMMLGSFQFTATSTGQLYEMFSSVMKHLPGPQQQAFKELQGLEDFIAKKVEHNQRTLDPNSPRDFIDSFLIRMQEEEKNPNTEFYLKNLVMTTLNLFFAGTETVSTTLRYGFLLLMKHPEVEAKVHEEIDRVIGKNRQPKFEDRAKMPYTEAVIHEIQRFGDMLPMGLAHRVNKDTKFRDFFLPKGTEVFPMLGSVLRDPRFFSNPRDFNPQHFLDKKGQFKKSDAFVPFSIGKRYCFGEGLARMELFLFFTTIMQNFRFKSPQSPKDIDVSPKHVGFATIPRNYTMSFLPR
Sequence of UniProt P11509 (whole entry, looked up): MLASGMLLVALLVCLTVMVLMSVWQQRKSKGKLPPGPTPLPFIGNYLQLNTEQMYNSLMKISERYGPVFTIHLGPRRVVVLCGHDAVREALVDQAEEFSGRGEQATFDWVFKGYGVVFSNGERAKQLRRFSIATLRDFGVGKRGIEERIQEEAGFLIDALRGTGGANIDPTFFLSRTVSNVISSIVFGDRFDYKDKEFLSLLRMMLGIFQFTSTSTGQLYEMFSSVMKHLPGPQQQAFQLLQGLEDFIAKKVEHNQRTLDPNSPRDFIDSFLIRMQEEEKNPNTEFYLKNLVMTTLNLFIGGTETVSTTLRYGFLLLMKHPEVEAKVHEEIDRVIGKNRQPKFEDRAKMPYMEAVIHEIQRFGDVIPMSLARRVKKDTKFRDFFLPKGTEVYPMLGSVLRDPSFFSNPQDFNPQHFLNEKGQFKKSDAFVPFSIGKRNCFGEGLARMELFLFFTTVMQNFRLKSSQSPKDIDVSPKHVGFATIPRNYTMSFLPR
Sequence of UniProt P08246 (whole entry, looked up): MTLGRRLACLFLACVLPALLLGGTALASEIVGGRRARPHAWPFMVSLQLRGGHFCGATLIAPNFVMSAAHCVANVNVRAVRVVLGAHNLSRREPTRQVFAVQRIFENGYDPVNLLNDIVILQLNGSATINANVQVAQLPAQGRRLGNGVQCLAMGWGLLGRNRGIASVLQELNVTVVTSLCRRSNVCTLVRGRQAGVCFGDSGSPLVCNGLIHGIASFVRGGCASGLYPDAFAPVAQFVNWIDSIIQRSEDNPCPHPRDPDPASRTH
Sequence of UniProt P08183 (whole entry, looked up): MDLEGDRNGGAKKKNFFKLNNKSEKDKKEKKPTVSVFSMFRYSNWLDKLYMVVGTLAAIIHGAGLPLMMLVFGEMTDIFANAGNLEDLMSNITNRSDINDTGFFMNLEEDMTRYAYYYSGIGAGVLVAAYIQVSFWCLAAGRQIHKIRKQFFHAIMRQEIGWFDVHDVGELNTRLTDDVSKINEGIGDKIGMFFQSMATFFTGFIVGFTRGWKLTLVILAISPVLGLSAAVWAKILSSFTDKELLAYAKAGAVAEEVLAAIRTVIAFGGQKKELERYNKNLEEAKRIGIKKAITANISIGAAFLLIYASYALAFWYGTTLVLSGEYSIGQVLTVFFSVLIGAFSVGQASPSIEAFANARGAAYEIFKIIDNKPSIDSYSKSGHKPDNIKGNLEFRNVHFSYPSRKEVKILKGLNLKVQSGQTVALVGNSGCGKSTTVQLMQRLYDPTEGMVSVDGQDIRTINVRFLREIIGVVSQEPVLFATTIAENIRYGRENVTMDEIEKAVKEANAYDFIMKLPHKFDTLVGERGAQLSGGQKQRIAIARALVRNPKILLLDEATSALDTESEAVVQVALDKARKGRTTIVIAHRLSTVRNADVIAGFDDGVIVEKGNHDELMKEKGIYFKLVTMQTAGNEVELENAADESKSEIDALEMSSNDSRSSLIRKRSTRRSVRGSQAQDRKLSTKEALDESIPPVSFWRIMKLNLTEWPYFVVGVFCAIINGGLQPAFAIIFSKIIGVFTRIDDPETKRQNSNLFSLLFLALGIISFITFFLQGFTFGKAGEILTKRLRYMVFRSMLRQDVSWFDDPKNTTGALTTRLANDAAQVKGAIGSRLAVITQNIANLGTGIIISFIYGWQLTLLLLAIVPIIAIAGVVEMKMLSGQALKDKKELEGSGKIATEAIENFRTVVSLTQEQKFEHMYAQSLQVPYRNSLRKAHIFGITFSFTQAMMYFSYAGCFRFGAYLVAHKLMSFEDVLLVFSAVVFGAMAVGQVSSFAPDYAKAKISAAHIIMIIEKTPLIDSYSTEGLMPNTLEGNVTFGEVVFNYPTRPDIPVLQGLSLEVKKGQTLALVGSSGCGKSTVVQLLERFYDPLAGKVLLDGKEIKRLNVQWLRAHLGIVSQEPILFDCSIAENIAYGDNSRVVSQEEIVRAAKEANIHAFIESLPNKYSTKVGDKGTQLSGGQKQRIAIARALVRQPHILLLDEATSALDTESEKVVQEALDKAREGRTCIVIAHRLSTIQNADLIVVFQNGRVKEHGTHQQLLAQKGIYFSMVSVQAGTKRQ
Sequence of UniProt P08682 (whole entry, looked up): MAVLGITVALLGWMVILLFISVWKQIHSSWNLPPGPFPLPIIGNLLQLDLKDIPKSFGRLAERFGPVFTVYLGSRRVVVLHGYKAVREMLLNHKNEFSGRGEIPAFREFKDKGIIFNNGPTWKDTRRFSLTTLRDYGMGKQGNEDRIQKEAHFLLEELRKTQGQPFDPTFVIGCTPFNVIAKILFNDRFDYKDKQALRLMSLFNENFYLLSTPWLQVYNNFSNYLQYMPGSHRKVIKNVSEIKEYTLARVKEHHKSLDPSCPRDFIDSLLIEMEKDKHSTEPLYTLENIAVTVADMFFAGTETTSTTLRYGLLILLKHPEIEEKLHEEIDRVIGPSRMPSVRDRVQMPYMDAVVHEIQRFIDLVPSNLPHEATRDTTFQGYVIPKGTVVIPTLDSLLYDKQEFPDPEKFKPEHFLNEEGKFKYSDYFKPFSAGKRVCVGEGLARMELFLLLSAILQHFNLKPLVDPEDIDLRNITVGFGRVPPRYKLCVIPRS
Sequence of UniProt P14780 (whole entry, looked up): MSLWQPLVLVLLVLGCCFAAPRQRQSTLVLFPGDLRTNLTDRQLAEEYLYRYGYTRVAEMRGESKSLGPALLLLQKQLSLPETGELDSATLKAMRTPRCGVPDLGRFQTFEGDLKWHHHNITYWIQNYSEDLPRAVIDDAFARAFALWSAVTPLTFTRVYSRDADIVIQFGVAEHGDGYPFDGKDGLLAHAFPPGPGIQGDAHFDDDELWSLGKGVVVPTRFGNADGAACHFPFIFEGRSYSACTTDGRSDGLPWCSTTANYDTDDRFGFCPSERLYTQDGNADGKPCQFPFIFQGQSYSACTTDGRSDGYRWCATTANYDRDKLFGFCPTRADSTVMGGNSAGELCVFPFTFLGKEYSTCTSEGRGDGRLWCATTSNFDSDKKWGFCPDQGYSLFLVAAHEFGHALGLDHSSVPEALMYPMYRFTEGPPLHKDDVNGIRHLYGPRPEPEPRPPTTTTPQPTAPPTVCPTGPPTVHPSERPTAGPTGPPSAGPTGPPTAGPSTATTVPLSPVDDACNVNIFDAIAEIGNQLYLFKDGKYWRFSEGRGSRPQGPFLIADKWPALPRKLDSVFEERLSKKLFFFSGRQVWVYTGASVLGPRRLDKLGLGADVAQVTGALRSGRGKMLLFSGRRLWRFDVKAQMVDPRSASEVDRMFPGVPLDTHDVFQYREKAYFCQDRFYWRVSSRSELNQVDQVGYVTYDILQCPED

SMILES = Clc1ccc(-c2cc(Cl)c(Cl)c(Cl)c2Cl)c(Cl)c1Cl; target = PXR (polar bear); assay = reporter gene, agonist, luciferase; system = COS-7; setting = 24 h; scale = relative to: DMSO; measurement = fold induction; value = 1.5 ± 0.3 fold
SMILES = c1cn[nH]c1; target = CYP2E1 (Oryctolagus cuniculus, UniProt P08682); assay = inhibitor; setting = pH 7.4, 37 °C, cooperative site, with: 4-nitrophenol; measurement = Ki; value = 98 µM
SMILES = CC(C)C[C@H](NC(=O)CNC(=O)[C@H](CC(C)C)NC(=O)[C@@H]1CCCN1C(=O)CNC(=O)[C@H](Cc1ccccc1)NC(=O)Cc1ccc2ccccc2c1)C(=O)N[C@@H](CCCNC(=N)N)C(=O)N[C@@H](CO)C(=O)N[C@@H](CCCCN)C(=O)O; target = Matrix metalloproteinase-9 (MMP9, Homo sapiens, UniProt P14780); assay = protease stability, substrate, HPLC; setting = 500 µM, pH 7.5, 37 °C, with: MMP9 10 U; measurement = time to complete digestion; value = 12 h
SMILES = C1CO1; target = glutathione S-transferase, mouse; assay = substrate; system = B6C3F1 mice, liver cytosol; measurement = Km; value = ≥ 9000 µM
SMILES = Nc1ccncc1[18F]; target = Cytochrome P450 2E1 (Cyp2e1, Mus musculus, UniProt Q05421); system = mouse, awake, plasma; setting = intravenous, 35 min, with: disulfiram 40 mg/kg intraperitoneal 2 h before; measurement = parent fraction; value = 50%
SMILES = CC(=O)CC(c1ccccc1)c1c(O)c2cc(O)ccc2oc1=O (centres unmarked); target = Cytochrome P450 2C9 (CYP2C9, Homo sapiens, UniProt P11712); assay = enzyme activity, inhibitor; setting = pH 7.4; measurement = Ki; value = > 170 µM
SMILES = C=C(C)[C@@H]1CCC(C)=C[C@H]1c1c(O)cc(CCCCC)cc1O; target = Cytochrome P450 2A6 (CYP2A6, Homo sapiens, UniProt P11509); assay = nicotine demethylation to nornicotine, inhibitor; system = microsomes of overexpressing HEK293 cells; setting = 1 µM, 30 min, pH 7.4, with: nicotine 50 µM; measurement = inhibition; value = 60%
SMILES = Clc1cc(Cl)c(-c2cccc(Cl)c2Cl)cc1Cl; target = NR1I2; assay = reporter gene, agonist, luciferase; system = COS-7; setting = 24 h; scale = relative to: DMSO; measurement = fold induction; value = 2.4 ± 0.4 fold
SMILES = C#CCOCc1cccc2ccccc12; target = Cytochrome P450 2A13 (Homo sapiens, UniProt Q16696); assay = binding, absorbance; setting = pH 7.4; measurement = Kd; value = 13.3 µM
SMILES = CC(C)[C@@H]1NC(=O)c2csc(n2)[C@H](C(C)C)NC(=O)c2csc(n2)[C@H](C(C)C)NC(=O)c2csc(n2)[C@H](C(C)C)NC(=O)c2csc1n2; target = ATP-dependent translocase ABCB1 (ABCB1, Homo sapiens, UniProt P08183); assay = efflux transport, inhibitor, flow cytometry; system = HeLa, BacMam P-gp transduced; setting = 10 µM, 45 min, with: Bodipy-FL-prazosin; scale = relative to: 1 µM tariquidar; measurement = inhibition; value = 79%
SMILES = CC(C)(c1cc(Br)c(O)c(Br)c1)c1cc(Br)c(O)c(Br)c1; target = NR1I2; assay = reporter gene, agonist, luciferase; system = COS-7; setting = 24 h; scale = relative to: DMSO; measurement = fold induction; value = 3.1 ± 1.1 fold
SMILES = Oc1ccc(/C=C/c2cc(O)cc(O)c2)cc1; target = UGT1A7 human recombinant; assay = substrate, refers to: 3-glucuronide; setting = pH 7.4; measurement = Km; value = 52.3 ± 42 µM
SMILES = Clc1ccc(-c2ccc(Cl)c(Cl)c2Cl)cc1; target = NR1I2; assay = reporter gene, agonist, luciferase; system = COS-7; setting = 24 h; scale = relative to: DMSO; measurement = fold induction; value = 1 ± 0.2 fold
SMILES = CC[N+]1=C(C=CC=CC=C2N(CCCCCC(=O)NCCN3C(=O)CC(SC[C@@H](NC(=O)[C@@H](CCCNC(=N)N)NC(=O)[C@@H](CCCNC(=N)N)NC(=O)[C@@H](CCCNC(=N)N)NC(=O)[C@@H](CCCNC(=N)N)NC(=O)[C@@H](CCCNC(=N)N)NC(=O)[C@@H](CCCNC(=N)N)NC(=O)[C@@H](CCCNC(=N)N)NC(=O)[C@@H](CCCNC(=N)N)NC(=O)[C@@H](CCCNC(=N)N)NC(=O)[C@H](CC(C)C)NC(=O)[C@H](CCCCN)NC(=O)[C@H](CC(C)C)NC(=O)[C@H](CCC(N)=O)NC(=O)[C@H](CC(C)C)NC(=O)[C@H](CCCNC(=N)N)NC(=O)CCCCCNC(=O)[C@@H](CCC(=O)O)NC(=O)[C@@H](CCC(=O)O)NC(=O)[C@@H](CCC(=O)O)NC(=O)[C@@H](CCC(=O)O)NC(=O)[C@@H](CCC(=O)O)NC(=O)[C@@H](CCC(=O)O)NC(=O)[C@@H](CCC(=O)O)NC(=O)[C@@H](CCC(=O)O)NC(=O)[C@H](N)CCC(=O)O)C(N)=O)C3=O)c3ccc(S(=O)(=O)O)cc3C2(C)C)C(C)(C)c2cc(S(=O)(=O)[O-])ccc21 (some centres unmarked); target = Neutrophil elastase (ELANE, Homo sapiens, UniProt P08246); assay = substrate; setting = 5 µM, 2 h; measurement = cleavage; value = 79 ± 2.8%

For quick reference, copied from above:
SMILES = Oc1ccc(/C=C/c2cc(O)cc(O)c2)cc1; target = UGT1A7 human recombinant; assay = substrate, refers to: 3-glucuronide; setting = pH 7.4; measurement = Km; value = 52.3 ± 42 µM
